# Measurements collected from several papers.
# Compare with care: the assays were run in different laboratories.
# Target: Inhibitor of nuclear factor kappa-B kinase subunit alpha (CHUK, Homo sapiens, UniProt O15111)
# Sequence (O15111 1-745, as in one of the studies): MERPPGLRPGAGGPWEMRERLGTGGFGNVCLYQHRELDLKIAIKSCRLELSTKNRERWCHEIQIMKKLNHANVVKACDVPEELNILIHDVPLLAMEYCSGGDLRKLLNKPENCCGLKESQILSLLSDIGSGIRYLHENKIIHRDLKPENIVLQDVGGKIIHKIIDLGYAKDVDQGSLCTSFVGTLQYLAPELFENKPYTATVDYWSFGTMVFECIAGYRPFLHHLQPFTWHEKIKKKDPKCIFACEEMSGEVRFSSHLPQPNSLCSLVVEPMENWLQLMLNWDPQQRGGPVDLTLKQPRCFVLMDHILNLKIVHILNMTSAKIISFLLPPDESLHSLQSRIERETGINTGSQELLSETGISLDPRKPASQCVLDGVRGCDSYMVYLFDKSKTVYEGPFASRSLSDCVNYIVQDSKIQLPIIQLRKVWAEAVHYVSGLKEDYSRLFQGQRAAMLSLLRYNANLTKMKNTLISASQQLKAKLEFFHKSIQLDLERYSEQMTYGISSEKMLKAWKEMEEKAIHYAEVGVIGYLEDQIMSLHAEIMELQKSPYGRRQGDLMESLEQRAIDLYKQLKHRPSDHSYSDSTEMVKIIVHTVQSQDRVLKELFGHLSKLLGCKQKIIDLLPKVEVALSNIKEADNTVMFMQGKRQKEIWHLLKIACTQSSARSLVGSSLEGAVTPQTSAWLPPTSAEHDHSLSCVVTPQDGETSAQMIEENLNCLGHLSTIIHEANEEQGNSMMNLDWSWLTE
SMILES,assay,test system,conditions,scale,measurement,value
CN1CC(Oc2cnc(C#N)cc2-c2ccn3nc(NC(=O)C4CC4)cc3c2)C1,"inhibitor, KinaseProfiler panel",,1 µM,,inhibition,-2%
COc1cc(-c2cncc3c2CN(C)Cc2cc(N4CCNCC4)ccc2-3)cc(OC)c1OC,kinase activity,,"1 µM, human enzyme, together with: ATP 10 µM",relative to: DMSO control,remaining activity,120%
Cc1cc(Nc2cc(N3CCN(C)CC3)nc(Sc3ccc(NC(=O)C4CC4)cc3)n2)[nH]n1,"kinase activity, KinaseProfiler",,"0.03 µM, species human",relative to: control,remaining activity,105%
CNc1cc(Oc2cc(C(=O)Nc3cc(N4CCN(C)CC4)cc(C(F)(F)F)c3)ccc2C)ncn1,kinase activity,,1 µM,,inhibition,-10.9%
CNc1ncc2c(/C=C/C(=O)N3CCC(OC)CC3)nn(Cc3cccc(C(F)(F)F)c3)c2n1,"kinase activity, inhibitor",,1 µM,relative to: untreated control,remaining activity,95%
COc1cc(F)ccc1-c1ncnc(Nc2cccc(C[S@](C)(=N)=O)c2)n1,kinase activity,,"10 µM, together with: 10 µM ATP",,remaining activity,105%
C=CC(=O)N1CCC(COCC(=O)N2CCN(c3nc(-c4cnc(N)nc4C(F)F)nc(N4CCOC[C@@H]4C)n3)CC2)CC1,KINOMEscan,,1 µM,,remaining binding,76%
Cn1cc(-c2cnc3ccc(NC(=O)Nc4ccc(F)c(Br)c4)cc3n2)cn1,"kinase binding, KiNativ profiling, item: Lys2 peptide",PANC-1 lysate,7.5 µM,,inhibition,1.3%

# Excerpt of the above:
SMILES,assay,test system,conditions,scale,measurement,value
CNc1cc(Oc2cc(C(=O)Nc3cc(N4CCN(C)CC4)cc(C(F)(F)F)c3)ccc2C)ncn1,kinase activity,,1 µM,,inhibition,-10.9%
